Assay results from different studies.
Compare with care: the assays were run in different laboratories. Several values in a cell are separate wells, animals, samples, runs or records. Numbers after ± are the reported error.

| Structure (SMILES) | target or system | test | system | setting | scale | quantity | result |
| --- | --- | --- | --- | --- | --- | --- | --- |
| CC[C@H](C)[C@H](NC(=O)[C@H](CCCCN)NC(=O)CNC(=O)[C@H](CC(C)C)NC(=O)[C@H](Cc1ccccc1)NC(=O)[C@H](CCCCN)NC(=O)[C@H](CO)NC(=O)[C@H](Cc1ccccc1)NC(=O)[C@H](Cc1c[nH]c2ccccc12)NC(=O)[C@H](CCC(N)=O)NC(=O)[C@@H](NC(=O)[C@H](Cc1ccccc1)NC(=O)CCCCCNC(=O)CN1CCN(CC(=O)O)CCN(CC(=O)O)CCN(CC(=O)O)CC1)C(C)C)C(=O)N[C@@H](CCC(=O)O)C(=O)N1CCC[C@H]1C(=O)N[C@@H](CC(=O)O)C(=O)N[C@H](C(=O)N[C@@H](CO)C(=O)N[C@@H](CCC(N)=O)C(=O)N[C@H](C(=O)N[C@@H](CCC(N)=O)C(=O)N[C@@H](CC(=O)O)C(=O)N1CCC[C@H]1C(=O)N[C@@H](CC(N)=O)C(=O)N[C@@H](CC(=O)O)C(=O)N[C@@H](CCC(N)=O)C(=O)N[C@@H](Cc1ccc(O)cc1)C(=O)N[C@@H](CCC(=O)O)C(=O)N1CCC[C@H]1C(=O)N[C@@H](Cc1ccccc1)C(=O)O)C(C)C)C(C)C [copper-64 labelled] | – | – | C57BL/6 mice, brain | together with: LPS 0.1 mg/kg intratracheal | – | tissue uptake | 0.11 ± 0.01 %ID/g |
| COc1ccccc1-c1n[nH]c2nc(NC3CCN(C(=O)Cc4ccc(F)cc4F)CC3)ncc12 | – | bead binding, competition bead pull-down, item: LINJ.30.3390 | Leishmania donovani axenic amastigote extract | 10 µM | baseline: vehicle | relative abundance | 1.04 |
| CCc1nn(C)c2nc(-c3ccc(C(=O)O)cc3)nc(NCc3ccccc3)c12 | – | – | NSG mice | dose not given, day 6 of treatment | – | body weight | 23.9 g and 22.3 g and 23 g and 23.1 g |
| O=C1NC2(CC2)COc2ncc(F)cc2[C@H]2COCCN2c2ccn3ncc1c3n2 | – | – | Sprague-Dawley rat, female, kidneys | oral, 20 mg/kg/day, 4 weeks, end of treatment | – | organ-to-brain weight ratio | 112 ± 9.44% |
| CCCCCCCCCCCCCCCC(=O)N[C@@H](CCC(=O)NCCOCCOCCC(=O)NCCOCCOCCC(=O)NCCCC[C@H](NC(=O)[C@H](CC(=O)O)NC(=O)[C@H](CC(C)C)NC(=O)[C@H](Cc1ccc(O)cc1)NC(=O)[C@H](CCCCN)NC(=O)[C@H](CO)NC(=O)[C@H](Cc1ccc(O)cc1)NC(=O)[C@H](CC(=O)O)NC(=O)[C@H](CO)NC(=O)[C@@H](NC(=O)[C@H](Cc1ccccc1)NC(=O)[C@@H](NC(=O)CNC(=O)[C@H](CCC(N)=O)NC(=O)[C@@H](CO)NC(=O)[C@@H](N)Cc1c[nH]cn1)[C@@H](C)O)[C@@H](C)O)C(=O)N[C@@H](CCCNC(=N)N)C(=O)N[C@@H](CCCNC(=N)N)C(=O)N[C@@H](C)C(=O)N[C@@H](CCC(N)=O)C(=O)N[C@@H](CC(=O)O)C(=O)N[C@@H](Cc1ccccc1)C(=O)N[C@H](C(=O)N[C@@H](CCC(N)=O)C(=O)N[C@@H](Cc1c[nH]c2ccccc12)C(=O)N[C@@H](CC(C)C)C(=O)N[C@@H](CC(C)C)C(=O)N[C@@H](CC(N)=O)C(=O)N[C@H](C(=O)NCC(=O)NCC(=O)N1CCC[C@H]1C(=O)N[C@@H](CO)C(=O)N[C@@H](CO)C(=O)NCC(=O)N[C@@H](C)C(=O)N1CCC[C@H]1C(=O)N1CCC[C@H]1C(=O)N1CCC[C@H]1C(=O)N[C@@H](CO)C(N)=O)[C@@H](C)O)C(C)C)C(=O)O | – | item: ALP | rhesus monkey, male | subcutaneous, 300 µg/kg once daily, 28 days | – | serum enzyme activity | 269 ± 79.1 U/L |
| CCCCCCCCCCCCCCCC(=O)N[C@@H](CCC(=O)NCCCC[C@H](NC(=O)[C@H](CC(=O)O)NC(=O)[C@H](CO)NC(=O)[C@@H](NC(=O)[C@H](Cc1ccccc1)NC(=O)[C@@H](NC(=O)CNC(=O)[C@H](CCC(N)=O)NC(=O)[C@H](C)NC(=O)[C@@H](Cc1ccc(O)cc1)NC(C)=O)[C@@H](C)O)[C@@H](C)O)C(=O)N[C@@H](CO)C(=O)N[C@@H](CCCCN)C(=O)N[C@@H](Cc1ccc(O)cc1)C(=O)N[C@@H](CC(C)C)C(=O)N[C@@H](CC(=O)O)C(=O)N[C@@H](CCC(=O)O)C(=O)N[C@@H](CCCNC(=N)N)C(=O)N[C@@H](C)C(=O)N[C@@H](C)C(=O)N[C@@H](CCC(N)=O)C(=O)N[C@@H](CC(=O)O)C(=O)N[C@@H](Cc1ccccc1)C(=O)N[C@H](C(=O)N[C@@H](CCC(N)=O)C(=O)N[C@@H](Cc1c[nH]c2ccccc12)C(=O)N[C@@H](CC(C)C)C(=O)N[C@@H](CC(C)C)C(=O)N[C@@H](CCC(=O)O)C(=O)NCC(=O)NCC(=O)N1CCC[C@H]1C(=O)N[C@@H](CO)C(=O)N[C@@H](CO)C(=O)NCC(=O)N[C@@H](C)C(=O)N1CCC[C@H]1C(=O)N1CCC[C@H]1C(=O)N1CCC[C@H]1C(=O)N[C@@H](CO)C(N)=O)C(C)C)C(=O)O | – | – | Wistar rat, male, plasma | subcutaneous, 0.02 mg/kg | – | dose-normalised Cmax | 1080 ng/mL per mg/kg |
| COc1cnc2cccc(N3CCc4c(cc(Cn5ccnc5)cc4-c4cn(C)nc4C(F)(F)F)C3=O)c2c1 | – | – | BALB/c nude mice, MV4-11 xenograft | intraperitoneal, 100 mg/kg, day 31 | – | body weight | 22.7 g and 24.6 g and 24.1 g and 23.4 g |
| CSCC[C@H](N)C(=O)N[C@@H](C)C(=O)N[C@@H](Cc1c[nH]c2ccccc12)C(=O)N[C@@H](Cc1c[nH]cn1)C(=O)N[C@@H](CC(=O)O)C(=O)N[C@@H](CC(=O)O)C(=O)N[C@@H](CCC(=O)O)C(=O)N[C@@H](CCC(=O)O)C(=O)N[C@@H](Cc1ccccc1)C(=O)N[C@@H](C)C(=O)N[C@@H](CCCNC(=N)N)C(=O)N[C@@H](CCCNC(=N)N)C(=O)N[C@@H](CCCNC(=N)N)C(=O)N[C@@H](CCCNC(=N)N)C(=O)NCCCCCC(=O)NCCCCC(NC(=O)CCCCCNC(=O)[C@H](CCCNC(=N)N)NC(=O)[C@H](CCCNC(=N)N)NC(=O)[C@H](CCCNC(=N)N)NC(=O)[C@H](CCCNC(=N)N)NC(=O)[C@H](C)NC(=O)[C@H](Cc1ccccc1)NC(=O)[C@H](CCC(=O)O)NC(=O)[C@H](CCC(=O)O)NC(=O)[C@H](CC(=O)O)NC(=O)[C@H](CC(=O)O)NC(=O)[C@H](Cc1c[nH]cn1)NC(=O)[C@H](Cc1c[nH]c2ccccc12)NC(=O)[C@H](C)NC(=O)[C@@H](N)CCSC)C(=O)NCCCCC(NC(=O)C(CCCCNC(=O)CCCCCNC(=O)[C@H](CCCNC(=N)N)NC(=O)[C@H](CCCNC(=N)N)NC(=O)[C@H](CCCNC(=N)N)NC(=O)[C@H](CCCNC(=N)N)NC(=O)[C@H](C)NC(=O)[C@H](Cc1ccccc1)NC(=O)[C@H](CCC(=O)O)NC(=O)[C@H](CCC(=O)O)NC(=O)[C@H](CC(=O)O)NC(=O)[C@H](CC(=O)O)NC(=O)[C@H](Cc1c[nH]cn1)NC(=O)[C@H](Cc1c[nH]c2ccccc12)NC(=O)[C@H](C)NC(=O)[C@@H](N)CCSC)NC(=O)CCCCCNC(=O)[C@H](CCCNC(=N)N)NC(=O)[C@H](CCCNC(=N)N)NC(=O)[C@H](CCCNC(=N)N)NC(=O)[C@H](CCCNC(=N)N)NC(=O)[C@H](C)NC(=O)[C@H](Cc1ccccc1)NC(=O)[C@H](CCC(=O)O)NC(=O)[C@H](CCC(=O)O)NC(=O)[C@H](CC(=O)O)NC(=O)[C@H](CC(=O)O)NC(=O)[C@H](Cc1c[nH]cn1)NC(=O)[C@H](Cc1c[nH]c2ccccc12)NC(=O)[C@H](C)NC(=O)[C@@H](N)CCSC)C(N)=O (some centres unmarked) | – | – | C57BL/6 mouse female, small intestine | 6 h | baseline: total dose | tissue distribution | 13.1% |
| N=C(N)NCCC[C@@H](NC(=O)[C@H](N)Cc1c[nH]c2ccccc12)C(=O)N[C@H](CCCCN)C(=O)N[C@H](Cc1c[nH]c2ccccc12)C(=O)N[C@H](CCCNC(=N)N)C(=O)N[C@H](CCCCN)C(=O)N[C@H](Cc1c[nH]c2ccccc12)C(=O)N[C@H](CCCNC(=N)N)C(=O)N[C@H](CCCCN)C(=O)N[C@H](Cc1c[nH]c2ccccc12)C(=O)N[C@H](CCCNC(=N)N)C(=O)N[C@H](CCCCN)C(N)=O | – | – | mouse, heart | intravenous, 40 mg/kg single dose, 7 days | – | organ index | 0.495 |
| CSCC[C@H](NC(=O)CNC(=O)[C@H](CCCCN)NC(=O)[C@H](CC(C)C)NC(=O)[C@@H]1CCCN1C(=O)[C@H](CO)NC(=O)[C@H](Cc1c[nH]cn1)NC(=O)[C@H](Cc1c[nH]c2ccccc12)NC(=O)[C@H](CCCNC(=N)N)NC(=O)[C@H](CC(C)C)NC(=O)[C@H](CCCNC(=N)N)NC(=O)[C@H](Cc1c[nH]c2ccccc12)NC(=O)[C@H](CS)NC(=O)CCCCCNC(=O)CN1CCN(CC(=O)O)CCN(CC(=O)O)CCN(CC(=O)O)CC1)C(=O)O [copper-64 labelled] | – | – | male C57BL/6J mice, B16-F10 tumour, small intestine | intravenous, 1.85 MBq, 2 h | – | tissue uptake | 9.76 %ID/g |
| CC(C)(C)C(=O)OCOP(=O)(OCOC(=O)C(C)(C)C)C1CCCN(O)C1=O (centres unmarked) | KM12 | – | – | – | – | GI50 | 443 nM |
| CCOP(=O)(CNC(=O)CN1CCN(CC(=O)NCP(=O)(OCC)OCC)CCN(CC(=O)NCP(=O)(OCC)OCC)CCN(CC(=O)NCP(=O)(OCC)OCC)CC1)OCC.[177Lu+3] | – | – | Sprague-Dawley rat, bone | intravenous, dose not given, 2 h | – | biodistribution | 0.998 ± 0.359 % injected dose/organ |
| CCCC/C=C/C(=O)N[C@@H](Cc1csc2ccccc12)C(=O)N[C@H]1COC(=O)[C@@H]2C[C@@H](C)CN2C(=O)[C@H](C)NC(=O)[C@@H]2CCCCN2C(=O)[C@@H]2CCCN2C1=O | – | LDH release | human ESC-derived lung organoids | concentration not given, 3 days | – | cytotoxicity | 2.78% and 1.92% and 3.45% |
| O=C(O)c1ccc(-c2nc(-c3ccccc3Cl)c3sccn23)cc1 | – | – | mouse | oral, dose not given, day 11, together with: 5-fluorouracil | – | plasma concentration | 18.9 ng/mL and 34.2 ng/mL |

Excerpt of the above:
| Structure (SMILES) | target or system | test | system | setting | scale | quantity | result |
| --- | --- | --- | --- | --- | --- | --- | --- |
| O=C1NC2(CC2)COc2ncc(F)cc2[C@H]2COCCN2c2ccn3ncc1c3n2 | – | – | Sprague-Dawley rat, female, kidneys | oral, 20 mg/kg/day, 4 weeks, end of treatment | – | organ-to-brain weight ratio | 112 ± 9.44% |
